Results pooled from the literature.
Numbered parts are unrelated; each lists some results of a single study.

Block 1
Target: Sal-like protein 4, full length isoform B (SALL4, Homo sapiens, UniProt Q9UJQ4-2, residues 1-616)
Method: universal PBM
Molecule type: double-stranded DNA, one strand shown
Sample: in vitro
Concentration: not given
Notes: 8-mer, flanks averaged, mean of replicates
Reading: higher = stronger binding
Residues (chain): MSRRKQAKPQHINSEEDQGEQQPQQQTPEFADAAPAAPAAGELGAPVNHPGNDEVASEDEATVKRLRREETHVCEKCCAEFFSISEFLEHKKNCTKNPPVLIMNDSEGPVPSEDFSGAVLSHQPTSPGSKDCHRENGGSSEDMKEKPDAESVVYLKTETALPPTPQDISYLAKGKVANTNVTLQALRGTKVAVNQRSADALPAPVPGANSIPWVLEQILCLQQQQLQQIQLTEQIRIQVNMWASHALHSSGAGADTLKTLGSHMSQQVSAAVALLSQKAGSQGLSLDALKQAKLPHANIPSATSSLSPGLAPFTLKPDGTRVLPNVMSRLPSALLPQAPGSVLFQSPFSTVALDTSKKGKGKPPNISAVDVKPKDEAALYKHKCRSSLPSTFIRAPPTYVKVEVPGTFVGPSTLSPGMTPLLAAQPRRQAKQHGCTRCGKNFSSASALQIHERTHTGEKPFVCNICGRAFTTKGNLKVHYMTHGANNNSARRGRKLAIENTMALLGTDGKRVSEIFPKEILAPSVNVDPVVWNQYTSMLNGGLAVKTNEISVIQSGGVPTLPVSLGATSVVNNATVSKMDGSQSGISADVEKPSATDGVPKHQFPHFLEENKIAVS
| Strand | E-score |
| --- | --- |
| CTAGTTTC | -0.0289 |
| TGTTCCAA | 0.111 |
| CACGCCTA | -0.011 |
| CTGCGCTC | -0.278 |
| GCAGGTTA | -0.0861 |
| ATCCATAG | 0.146 |
| AAGGACTC | 0.00377 |
| AATGTGGT | 0.114 |

Block 2
Target: Interferon regulatory factor 7, full length, phosphomimetic (IRF7, Homo sapiens, UniProt Q92985, residues 1-503, S471D/S472D/S475D/S476D/S477D/S483D/S484D/S487D)
Method: protein-binding microarray
Molecule type: double-stranded DNA, one strand shown
Sample: in vitro
Concentration: 2200 nM top
Notes: 60-bp whole probe
Added: salmon DNA 0.4 mg/ml
Baseline: random background probes
Reading: higher = stronger binding
All sequences stand within: GCCTAGCAC … GTCTTGATTCGCTTGACGCTGCTG
Residues (chain): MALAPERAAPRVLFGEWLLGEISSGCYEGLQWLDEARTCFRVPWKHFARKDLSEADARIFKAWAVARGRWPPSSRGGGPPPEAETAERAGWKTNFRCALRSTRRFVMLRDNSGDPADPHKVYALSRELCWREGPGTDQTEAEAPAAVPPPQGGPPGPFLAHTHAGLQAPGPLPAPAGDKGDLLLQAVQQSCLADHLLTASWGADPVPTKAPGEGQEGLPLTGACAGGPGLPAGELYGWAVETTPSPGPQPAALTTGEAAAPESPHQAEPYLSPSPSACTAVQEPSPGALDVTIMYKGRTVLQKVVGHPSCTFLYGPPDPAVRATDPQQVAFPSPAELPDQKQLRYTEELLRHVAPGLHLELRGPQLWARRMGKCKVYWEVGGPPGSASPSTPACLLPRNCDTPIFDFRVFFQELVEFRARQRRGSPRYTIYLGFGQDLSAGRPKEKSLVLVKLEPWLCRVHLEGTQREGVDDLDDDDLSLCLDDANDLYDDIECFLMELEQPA
| Strand | fitted relative affinity |
| --- | --- |
| TTATGACTGGACTTTCGGTTAGTGCTA | 5.57 z-score |
| GTAGATTTCAGTTTCGATTAGTGCTAG | 8.14 z-score |
| TCATTTTTCATTTTGTTACTGTGCTAG | 4.89 z-score |
| CGAGTTTCCATTTTCTGAATGTGCTAG | 6.06 z-score |
| TTAGATCTAAGTATCGATTAGTGCTAG | -0.154 z-score |
| TTAGGTTTCGTTTCCGGTTAGTGCTAG | 10.6 z-score |
| TTAGGATTCGGACTGGGTTAGTGCTAG | 0.238 z-score |
| TCACCTCCCCCTCTGCCACTGTGCTAG | 0.291 z-score |

Block 3
Target: Histone acetyltransferase KAT6A, winged helix 1, GST fusion (KAT6A, Homo sapiens, UniProt Q92794, residues 1-85)
Method: protein binding microarray
Molecule type: double-stranded DNA, one strand shown
Sample: in vitro
Concentration: not given
Notes: 8-mer, flanks averaged, mean of 2 arrays, mostly near background
Baseline: not given
Reading: higher = stronger binding
Construct (chain): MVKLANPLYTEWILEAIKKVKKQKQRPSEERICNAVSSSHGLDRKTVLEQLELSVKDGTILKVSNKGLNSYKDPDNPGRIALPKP
| Strand | E-score |
| --- | --- |
| CCCAACAA | -0.197 |
| AGCCTGAG | -0.0686 |
| ATTGGGCA | -0.199 |
| ATGATATC | -0.169 |
| CCAACCAA | -0.134 |
| CGTGTTAC | 0.113 |
| ATTCGTCA | -0.263 |
| TCAAATGA | -0.236 |

Block 4
Cell line: HEK-293T
Observed: pseudovirus infection
Organism: VSV pseudotyped with SARS-CoV-2 spike
Concentration: 10 µM
Time: 16 h
Baseline: vehicle-treated
| SMILES | GFP-positive cells |
| --- | --- |
| NC(=O)Cc1cccc(C(=O)c2ccccc2)c1N | 84.5% |
| C[C@]12CC[C@H](O)CC1=CC[C@@H]1[C@@H]2CC[C@]2(C)C(c3cccnc3)=CC[C@@H]12 | 91.3% |
| COC(=O)[C@@H]1CC2=CC(=O)CC[C@]2(C)[C@@]23O[C@@H]2C[C@@]2(C)[C@@H](CC[C@@]24CCC(=O)O4)[C@H]13 | 52.7% |
| CCc1c2c(nc3ccc(OC(=O)N4CCC(N5CCCCC5)CC4)cc13)-c1cc3c(c(=O)n1C2)COC(=O)[C@]3(O)CC | 75.2% |

Block 5
Target: Replicase polyprotein 1ab, polymerase (rep, Severe acute respiratory syndrome coronavirus 2, UniProt P0DTD1)
Observed: enzyme activity
Action: inhibitor
Concentration: 20 µM
| SMILES | inhibition [%] |
| --- | --- |
| CCCn1c(=O)c2[nH]c(C34C[C@@H]5CC3C[C@@H](C5)C4)nc2n(CCC)c1=O | 1.52 |
| Cc1ccc(NC(=O)C(C)C)cc1C1CCN(Cc2ccc(Oc3ccc(F)c(F)c3)cc2)CC1 | 1.91 |
| CNC(=O)c1ccc(-c2cnc3ncc(Cc4ccc5ncccc5c4)n3n2)cc1F | -2.07 |
| C/C(=N\NC(=O)[C@H]1C(=O)NC[C@@H]1c1ccccc1)c1cccc(Br)c1 | -12.8 |
| Cc1cccc(/C=N/Nc2cc(N3CCOCC3)n3nc(-c4ccncc4)cc3n2)c1 | -4.8 |
| O=[N+]([O-])c1c(Nc2cc(F)cc(Cl)c2)ccc2nonc12 | -0.92 |
| CN(C)C(=O)Oc1ccc[n+](C)c1 | -3.58 |
| Cc1nc[nH]c1CCN | -9.73 |
| CC(=O)N[C@@H](CSSC[C@H](NC(C)=O)C(=O)O)C(=O)O | 1.98 |
| C[C@H](c1ccc2ccc(O[C@H]3CC[C@@H](C(F)(F)F)CC3)c(C(F)(F)F)c2c1)N1C2CCC1CC(C(=O)O)C2 (some centres unmarked) | -3.74 |
| CN1CC(=O)NC1=N | -0.91 |
| CC(C)(C)NCC(O)COc1cccc2c1C[C@H](O)[C@H](O)C2 (mixture of isomers) | 1.21 |
| CCCCC(CC)CCC(CC(C)C)OS(=O)(=O)O (centres unmarked) | 8.48 |
| CCCOc1ccn2c(C(C)=O)cc(-c3ccccc3S(C)(=O)=O)c2c1 | 4.73 |
| Cc1ccc(-c2ncc[nH]2)cc1NC(=O)c1ccc(OCc2ccccn2)cc1 | -12.6 |
| CC[N+]1(C)CCCC(OC(=O)C(O)(c2ccccc2)c2ccccc2)C1 (centres unmarked) | -0.66 |
| C[C@@H]1CC(=O)c2c(ccc3c2C(=O)c2cccc(O)c2C3=O)C1 | 2.39 |
| O=C1C[C@@H](c2ccc(O)cc2)Oc2cc(O)ccc21 | 3.44 |
| CCC(=O)O[C@@](Cc1ccccc1)(c1ccccc1)[C@@H](C)CN(C)C | -2.92 |
| CCCn1c(=O)[nH]c2nc(-c3ccc(S(=O)(=O)N4CCN(c5ccc(Cl)cc5)CC4)cc3)[nH]c2c1=O | -3.84 |
| CCCn1cnc2c1c(=O)n(CCCCC(C)=O)c(=O)n2C | -0.18 |
| COc1cc(N)c(Cl)cc1C(=O)OCCN1CCCCC1 | 3.94 |
| CC(C)(C)C(=O)CN1C(=O)[C@H](NC(=O)Nc2cccc(C(=O)O)c2)CN(C2CCCCC2)c2ccccc21 | 0.16 |
| CC(C)n1nc(-c2ccc3oc(N)nc3c2)c2c(N)ncnc21 | -5.07 |
| O=C(CCCCCCCn1cc(-c2cccnc2)nn1)Nc1ccccc1-c1ccccc1 | -1.98 |

Block 6
Target: Replicase polyprotein 1ab, main protease (rep, Severe acute respiratory syndrome coronavirus 2, UniProt P0DTD1)
Observed: enzyme activity
Action: inhibitor
Concentration: 20 µM
| SMILES | inhibition [%] |
| --- | --- |
| Cc1ccc(S(=O)(=O)/C=C/C#N)cc1 | -12.5 |
| COc1ccc2[nH]c(S)nc2c1 | 15.9 |
| Oc1c(I)cc(I)c(O)c1I | -18.8 |

Repeated from above (block 1):
| Strand | E-score |
| --- | --- |
| CTAGTTTC | -0.0289 |
| TGTTCCAA | 0.111 |
| CACGCCTA | -0.011 |
| CTGCGCTC | -0.278 |
| GCAGGTTA | -0.0861 |
| ATCCATAG | 0.146 |
| AAGGACTC | 0.00377 |
| AATGTGGT | 0.114 |
